{"data": "Published values collected from several papers", "note": "Each numbered part is a random draw from the data of one study; scales do not carry over between parts. Positions count from the first letter of the parent shown."}
{"data": "Series 1", "target": "CCNF, cyclin fold, Cln2 fusion (human)", "method": "yeast growth competition, sequencing", "matrix": "yeast", "setting": "strong parent motif", "relative to": "not given", "reading": "higher = stronger binding", "parent": "CCP110 docking peptide (human); EKVKRRLDLDIDG"}
{"Substitution": "L9F", "normalised enrichment score": 7.44}
{"Substitution": "K2A", "normalised enrichment score": 6.3}
{"Substitution": "G13A", "normalised enrichment score": 6.33}
{"Substitution": "L7A", "normalised enrichment score": 0.0662}
{"Substitution": "R5A L7A", "normalised enrichment score": 0.0646}
{"Substitution": "I11A", "normalised enrichment score": 5.18}
{"Substitution": "L9A", "normalised enrichment score": 1.01}
{"Substitution": "K4A", "normalised enrichment score": 6.22}
{"Substitution": "R5K L9F", "normalised enrichment score": 7.15}
{"data": "Series 2", "target": "RING finger protein unkempt homolog, zinc fingers 1-6, GST-SBP tag (UNK, Homo sapiens, UniProt Q9C0B0, residues 30-357)", "method": "RNA Bind-n-Seq", "form": "RNA", "matrix": "in vitro", "concentration": "not given", "setting": "RNA with constant flanks, human and mouse sites, ends assumed", "relative to": "input RNA pool", "reading": "higher = stronger binding", "Residues (chain)": "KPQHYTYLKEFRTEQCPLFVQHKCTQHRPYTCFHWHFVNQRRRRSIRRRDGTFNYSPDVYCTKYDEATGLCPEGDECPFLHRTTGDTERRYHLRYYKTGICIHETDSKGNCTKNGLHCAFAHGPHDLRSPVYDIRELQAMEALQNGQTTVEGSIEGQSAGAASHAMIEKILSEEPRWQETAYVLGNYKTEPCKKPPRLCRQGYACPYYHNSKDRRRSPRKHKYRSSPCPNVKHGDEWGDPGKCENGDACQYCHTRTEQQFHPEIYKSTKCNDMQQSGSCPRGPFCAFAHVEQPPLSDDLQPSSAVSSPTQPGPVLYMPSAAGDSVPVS"}
{"Oligonucleotide": "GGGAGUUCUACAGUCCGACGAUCUUGCUUUACUGGAAAGAACCAGAAUAUGCCAAAUAUCUAAAGUACCCUCAGUGCUUACAUAUGUUAGAGCUGCUCCAGUAUGAGCACUUUCGCAAGGAGCUGGUGAAUGCGCAGUGUGCGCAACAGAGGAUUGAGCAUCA", "bound/input enrichment [ratio]": 0.155}
{"Oligonucleotide": "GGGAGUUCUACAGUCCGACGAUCGCACGUCAGAAGAUGACCCUUGAGUCAUUCUCUAAGGUGCCGCCUUUGAUUGCAAGCUUUGUUAGGUCGAAGAGAAAGGAAGACUCUCCGAACCUAAGGGAAGCGUUGGAGAACGAAUUCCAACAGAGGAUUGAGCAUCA", "bound/input enrichment [ratio]": 0.0621}
{"Oligonucleotide": "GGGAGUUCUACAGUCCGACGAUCGGCUUCAGCAGUGUGCUCCAGUUCCUAGGACUCUACAAGAAAUCUGGAAAACUUGUAUUCUUAGGAUUGGACAAUGCGGGCAAAACCACUCUUCUUCACAUGCUGAAAGAUGACAGACUACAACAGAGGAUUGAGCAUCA", "bound/input enrichment [ratio]": 0.262}
{"Oligonucleotide": "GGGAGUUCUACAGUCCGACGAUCCUCUCUGACUAUCAACGUGGACGAGUAGAAAAUGUAUGUAAACGACUCAAUCUCCAGCCUUUAGCUUAUCUUUGGCAAAGAAACCAGGAAGAUUUGCUCCGAGAGAUGAUAGCUUCUAAUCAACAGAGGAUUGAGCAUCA", "bound/input enrichment [ratio]": 0.316}
{"Oligonucleotide": "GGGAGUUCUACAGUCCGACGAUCGAGAACAGCAACAUACAGGUCCUUUCUGAAAGAUCUGCUACUGAAGUAGACAACAAUUUUAGCAAACCACCUCCGUUUUUCCCUCCAGGAGCUCCUCCCACUCACCUUCCACCUCCUCCACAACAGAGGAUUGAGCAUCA", "bound/input enrichment [ratio]": 0.858}
{"Oligonucleotide": "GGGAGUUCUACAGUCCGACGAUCGAGAAGCUCAAGACCAUCAGCCUGGUGAUCCGCGGCACGCAGGGGGCCGAGGAGGUGCUCAGGGCCCACGAGGAGCAGCUCAAGGAGGCCCAGGCCGUGCCGGCCACCCUCCCGGAGCUCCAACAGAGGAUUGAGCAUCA", "bound/input enrichment [ratio]": 0.146}
{"Oligonucleotide": "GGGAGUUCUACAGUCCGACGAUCGCUCUACGCUGCUGGGAUACAGCUCGCAGCCUGGGGUCCCGGAUAUUUGGAAGAUAUGCGUUCACGGUUAGAGCAUUAAGUUCUUUGCCAGAUAAGAAAAAGGAAUUUUUGCAUAAUGGACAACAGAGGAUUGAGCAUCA", "bound/input enrichment [ratio]": 0.293}
{"Oligonucleotide": "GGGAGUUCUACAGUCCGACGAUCAAUUUUAUACAUUCCAGAUAGAGAGGCAGGCUUAAAGUCUUUUUAAAACAAUAUUUUUUGUAUUUAAGUAAUUGCAGUUAUCUGGGAUUUUUUUUUCUUUUUUUUGGUCAGAAUUCUGAACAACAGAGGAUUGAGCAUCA", "bound/input enrichment [ratio]": 1.14}
{"Oligonucleotide": "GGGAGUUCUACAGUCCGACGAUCAUGUGGGAAGACAAAUGAAGGGAUUUAGAAGCCAAGUAAAUGUCAUUGGGAAGGAGAGCUACCACCACUGAGUGCUGAACAGUAAACUCAUUUUUCAGAGUUAAAAAAUUAUUUAAAAAACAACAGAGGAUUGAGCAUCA", "bound/input enrichment [ratio]": 0.475}
{"Oligonucleotide": "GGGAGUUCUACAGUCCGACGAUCCGGUAUAAGAGAAAUCAAAUAUAUACCUACAUCGGCUCCAUCCUGGCCUCCGUGAACCCCUACCAGCCCAUCGCCGGGCUGUACGAGCCUGCCACCAUGGAGCAGUACAGCCGGCGCCACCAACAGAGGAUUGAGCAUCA", "bound/input enrichment [ratio]": 0.185}
{"Oligonucleotide": "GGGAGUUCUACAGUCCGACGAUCCUGCCCUAGAAUUGUUAUGUUGGGCAUCACAGUCAUGAACUUUUGUUUUUCUCCCUUUUUUAGUUUUUUCAAAGAUGGGGGGAAGGGAAAUAUGAGCCUUUGUUGCUUUCAAAACGAGAACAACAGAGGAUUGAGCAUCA", "bound/input enrichment [ratio]": 14.2}
{"data": "Series 3", "target": "Histone acetyltransferase KAT6A, winged helix 1, GST fusion (KAT6A, Homo sapiens, UniProt Q92794, residues 1-85)", "method": "protein binding microarray", "form": "double-stranded DNA, one strand shown", "matrix": "in vitro", "concentration": "not given", "setting": "8-mer, flanks averaged, mean of 2 arrays, mostly near background", "relative to": "not given", "reading": "higher = stronger binding", "Target sequence (chain)": "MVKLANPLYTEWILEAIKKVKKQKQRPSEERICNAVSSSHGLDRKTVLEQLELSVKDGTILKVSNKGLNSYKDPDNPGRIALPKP"}
{"Oligonucleotide": "CGAACACG", "E-score": 0.128}
{"Oligonucleotide": "CATATAAC", "E-score": -0.0603}
{"Oligonucleotide": "TTCGTCAA", "E-score": -0.196}
{"Oligonucleotide": "AGCAGGAA", "E-score": -0.236}
{"Oligonucleotide": "ATGATGAA", "E-score": -0.285}
{"Oligonucleotide": "AAAGAGCT", "E-score": -0.121}
{"Oligonucleotide": "CGATTATA", "E-score": -0.029}
{"Oligonucleotide": "CTCTCAAG", "E-score": -0.278}
{"Oligonucleotide": "CATGGCCC", "E-score": 0.0872}
{"Oligonucleotide": "AATGATGA", "E-score": -0.24}
{"Oligonucleotide": "AACCCGAC", "E-score": 0.278}
{"Oligonucleotide": "ATCAAAAG", "E-score": -0.0103}
{"Oligonucleotide": "GAGGTTCC", "E-score": 0.0848}
{"Oligonucleotide": "ATCAATTG", "E-score": -0.0954}
{"Oligonucleotide": "CCATATAC", "E-score": 0.0424}
{"Oligonucleotide": "AAGGACAA", "E-score": -0.153}
{"Oligonucleotide": "GTCGCGAC", "E-score": 0.165}
{"Oligonucleotide": "CAATTTGA", "E-score": -0.217}
{"Oligonucleotide": "ACTACACG", "E-score": -0.00723}
{"Oligonucleotide": "ACCCCAGG", "E-score": -0.0295}
{"Oligonucleotide": "CGTCGGGC", "E-score": 0.446}
{"Oligonucleotide": "TGTCAAAA", "E-score": -0.0987}
{"Oligonucleotide": "ACCTAGCT", "E-score": -0.309}
{"Oligonucleotide": "CCCGCCAA", "E-score": 0.271}
{"Oligonucleotide": "CAGATTTC", "E-score": -0.13}
{"data": "Series 4", "target": "Ras GTPase-activating protein-binding protein 1, full length (G3BP1, Homo sapiens, UniProt Q13283)", "method": "RNA Bind-n-Seq", "form": "RNA", "matrix": "in vitro", "concentration": "200 nM", "setting": "whole 134-nt RNA, ends assumed", "added": "150 mM KCl", "relative to": "input library", "reading": "higher = stronger binding", "sequence of UniProt Q13283 (whole entry, looked up)": "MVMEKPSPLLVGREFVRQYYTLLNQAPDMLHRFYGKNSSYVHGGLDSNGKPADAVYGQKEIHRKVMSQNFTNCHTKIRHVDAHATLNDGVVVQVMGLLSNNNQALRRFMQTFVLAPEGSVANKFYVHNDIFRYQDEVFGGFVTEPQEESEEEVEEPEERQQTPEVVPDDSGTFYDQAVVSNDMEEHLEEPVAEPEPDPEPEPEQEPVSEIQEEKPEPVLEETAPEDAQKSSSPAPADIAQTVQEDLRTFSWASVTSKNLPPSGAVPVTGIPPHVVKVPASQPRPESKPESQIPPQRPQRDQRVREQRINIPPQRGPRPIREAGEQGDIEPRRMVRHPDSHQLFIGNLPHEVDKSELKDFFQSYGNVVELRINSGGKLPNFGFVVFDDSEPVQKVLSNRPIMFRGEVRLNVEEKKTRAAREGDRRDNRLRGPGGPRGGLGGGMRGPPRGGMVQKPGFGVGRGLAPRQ"}
{"Oligonucleotide": "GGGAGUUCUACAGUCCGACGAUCGGUGUUGCUGGAAGAAGCCAAGGAUUUGCUCUCUGACUGGCUGGAUUCUACACUUGGCUGUGAUGUCACUGACAAUUCCAUCUUCUCCAAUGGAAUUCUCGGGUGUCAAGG", "log2 enrichment": 0.518}
{"Oligonucleotide": "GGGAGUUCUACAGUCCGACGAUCGUCCUGUGCUACACAUCGUAUGUACCGAAUCGGUUUUUGGGGUUUUUGGUUUUUGGGGAAAGUAUUAUGUUACGCCGUUCGGAUCUGCACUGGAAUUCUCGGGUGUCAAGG", "log2 enrichment": -0.81}
{"Oligonucleotide": "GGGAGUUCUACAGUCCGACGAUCCAAGUCCUGUGCUACACAUCGUAUGUACCGAAUCGGCCCGGGGCCCGGGGCCCGGGAAAGUAUUAUGUUACGCCGUUCGGAUCUGCACUUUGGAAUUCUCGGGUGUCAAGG", "log2 enrichment": -0.797}
{"Oligonucleotide": "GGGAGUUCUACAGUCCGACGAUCUGGGAGGUGGAUUUUGUUUAUUUUUUUAGCUCAUUUCCAGGGGUGGGAAUUUUUUUUUAAUAUGUGUCAUGAAUAAAGUGGUUUUUGAAAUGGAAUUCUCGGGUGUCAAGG", "log2 enrichment": 0.0989}
{"Oligonucleotide": "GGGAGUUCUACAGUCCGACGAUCGCAGGAAGUAAAAACAAAUGGAAAUGCUUCGGAUAGUGGCAGGGGUGGGGGUUGCUAAGGAAAGGGUGGGAUGGGAGUGGGUAAAGAGUUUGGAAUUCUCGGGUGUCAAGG", "log2 enrichment": 1.02}
{"Oligonucleotide": "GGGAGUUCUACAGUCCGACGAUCACCAUGCAGGUGGGCAUCUUUGGGUAGUGGGGCAAGGGGGGGAUAGGGAGGGGGGUAACACUUUGGGAACAGGUGGUCCCAGGUCGUUUCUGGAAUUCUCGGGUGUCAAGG", "log2 enrichment": 1.24}
{"Oligonucleotide": "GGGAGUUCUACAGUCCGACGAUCAGUCCUGUGCUACACAUCGUAUGUACCGAAUCGGGGCCCCCGGCCCCCGGGCCCCCGGAAAGUAUUAUGUUACGCCGUUCGGAUCUGCACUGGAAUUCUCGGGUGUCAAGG", "log2 enrichment": -0.871}
{"Oligonucleotide": "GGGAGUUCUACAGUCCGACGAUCAAGUCCUGUGCUACACAUCGUAUGUACCGAAUCGGGAAAAGGGAAAAGGAAAAGGGAAAGUAUUAUGUUACGCCGUUCGGAUCUGCACUUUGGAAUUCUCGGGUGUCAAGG", "log2 enrichment": -0.693}
{"Oligonucleotide": "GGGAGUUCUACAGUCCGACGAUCUUUACAAAUAUGCCCAAGACUUCUUGGUGGCUAUUGCAGAGCCAGUGUGCCGACCAACCCAUGUGCAUGAGUACAAACUAACUGCCUACUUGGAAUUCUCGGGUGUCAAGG", "log2 enrichment": 0.0178}
{"Oligonucleotide": "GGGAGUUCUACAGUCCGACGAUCUCCUGUGCUACACAUCGUAUGUACCGAAUCGGAAAAAAGGGAAAAAAGGGAAAAAAGGGGAAAGUAUUAUGUUACGCCGUUCGGAUCUGCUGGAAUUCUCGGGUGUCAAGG", "log2 enrichment": -0.569}
{"note": "For quick reference, copied from above (series 4):"}
{"Oligonucleotide": "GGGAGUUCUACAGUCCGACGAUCAAGUCCUGUGCUACACAUCGUAUGUACCGAAUCGGGAAAAGGGAAAAGGAAAAGGGAAAGUAUUAUGUUACGCCGUUCGGAUCUGCACUUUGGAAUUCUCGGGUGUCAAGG", "log2 enrichment": -0.693}
{"Oligonucleotide": "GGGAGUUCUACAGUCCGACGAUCGGUGUUGCUGGAAGAAGCCAAGGAUUUGCUCUCUGACUGGCUGGAUUCUACACUUGGCUGUGAUGUCACUGACAAUUCCAUCUUCUCCAAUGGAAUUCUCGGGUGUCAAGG", "log2 enrichment": 0.518}
{"Oligonucleotide": "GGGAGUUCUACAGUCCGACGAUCGCAGGAAGUAAAAACAAAUGGAAAUGCUUCGGAUAGUGGCAGGGGUGGGGGUUGCUAAGGAAAGGGUGGGAUGGGAGUGGGUAAAGAGUUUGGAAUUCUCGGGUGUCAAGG", "log2 enrichment": 1.02}
